Experimental data of several laboratories.
Every numbered part comes from another study and shows a few of its results, in no order. Positions count from the first letter of the parent shown.

Study 1
Target: Sal-like protein 4, full length isoform A (SALL4, Homo sapiens, UniProt Q9UJQ4, residues 1-1053)
Chain of UniProt Q9UJQ4 (whole entry, looked up): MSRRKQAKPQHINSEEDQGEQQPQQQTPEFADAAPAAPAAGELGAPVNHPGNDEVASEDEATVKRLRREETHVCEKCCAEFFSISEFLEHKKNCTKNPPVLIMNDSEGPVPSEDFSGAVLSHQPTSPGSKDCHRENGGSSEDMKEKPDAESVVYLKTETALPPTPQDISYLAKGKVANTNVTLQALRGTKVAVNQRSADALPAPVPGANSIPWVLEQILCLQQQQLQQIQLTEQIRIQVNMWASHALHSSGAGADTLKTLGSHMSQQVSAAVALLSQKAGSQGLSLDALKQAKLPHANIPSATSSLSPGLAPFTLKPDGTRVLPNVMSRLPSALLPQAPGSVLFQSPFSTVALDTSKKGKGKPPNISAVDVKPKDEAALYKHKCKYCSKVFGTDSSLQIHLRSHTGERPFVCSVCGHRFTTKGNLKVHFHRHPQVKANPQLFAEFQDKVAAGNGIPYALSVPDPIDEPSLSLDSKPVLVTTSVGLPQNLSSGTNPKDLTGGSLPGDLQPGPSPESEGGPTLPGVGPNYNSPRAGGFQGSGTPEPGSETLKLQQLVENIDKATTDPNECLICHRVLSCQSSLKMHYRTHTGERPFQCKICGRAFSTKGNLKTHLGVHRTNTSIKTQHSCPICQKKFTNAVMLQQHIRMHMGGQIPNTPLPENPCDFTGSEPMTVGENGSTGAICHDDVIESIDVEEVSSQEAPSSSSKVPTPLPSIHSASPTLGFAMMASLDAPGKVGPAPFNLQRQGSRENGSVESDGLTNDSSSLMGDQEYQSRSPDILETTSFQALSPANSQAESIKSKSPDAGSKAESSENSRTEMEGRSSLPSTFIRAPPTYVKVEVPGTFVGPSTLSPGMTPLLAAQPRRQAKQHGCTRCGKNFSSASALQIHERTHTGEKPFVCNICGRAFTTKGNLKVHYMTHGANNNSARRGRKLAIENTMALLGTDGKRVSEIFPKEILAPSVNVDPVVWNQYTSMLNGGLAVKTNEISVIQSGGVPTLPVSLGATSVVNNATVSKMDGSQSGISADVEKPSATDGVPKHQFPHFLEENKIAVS
Method: universal PBM
Molecule type: double-stranded DNA, one strand shown
Medium: in vitro
Tested at: 600 nM
Notes: 8-mer, flanks averaged, mean of replicates
Reading: higher = stronger binding
Measurement: E-score
AGAGCGTC: -0.185
ATACTCTC: 0.227
AACTGGCC: -0.25
CCGGTCAA: -0.215
CCGCTATC: -0.0349
AGTAGGAC: -0.0707
GATGGAAA: 0.0937
ACAACTCA: 0.175
ACTGTGGG: -0.267
GGTACACC: -0.274
CATGTCAA: 0.169
AAAGCACC: -0.137
TCACCACA: 0.0227
ACTTACCA: 0.0701
ATGCCATA: 0.22
GCTACTCC: -0.133
GTCTCGGA: -0.238
CGGGTGAG: -0.277

Study 2
Target: Histone acetyltransferase KAT6A, both winged helices, GST fusion (KAT6A, Homo sapiens, UniProt Q92794, residues 1-181)
Method: protein binding microarray
Molecule type: double-stranded DNA, one strand shown
Medium: in vitro
Tested at: not given
Notes: 8-mer, flanks averaged, mean of 2 arrays, mostly near background
Reference: not given
Reading: higher = stronger binding
Measurement: E-score
Target sequence (chain): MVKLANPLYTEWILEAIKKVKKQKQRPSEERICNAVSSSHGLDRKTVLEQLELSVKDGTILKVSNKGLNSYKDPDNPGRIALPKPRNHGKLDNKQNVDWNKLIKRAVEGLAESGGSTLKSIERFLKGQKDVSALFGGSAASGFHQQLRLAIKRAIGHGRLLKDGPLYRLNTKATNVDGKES
GTTAGGGA: -0.0415
TGAAGGCA: -0.0927
GGGCTGTA: -0.189
CAGCTTCC: 0.0252
CTAGCTCA: -0.228
ATCCTCGG: -0.0637
AACGTTTC: -0.0592
AGACGCGG: 0.269
TACCATGA: -0.104
ACCGTGAA: 0.111
CACAGACG: -0.0226
GCCATCTA: -0.0132
CCGATCCG: 0.174
CGGCCACG: 0.19
AAGGTAAG: -0.115
AAGACTAA: -0.0937
GGAACCAA: 0.0523
GAACGTAA: 0.00156
ATCCCGTA: 0.187
CAATCTCG: -0.0985
GGTCAGAA: -0.0457

Study 3
Target: RING finger protein unkempt homolog, zinc fingers 1-6, SBP tag (UNK, Homo sapiens, UniProt Q9C0B0, residues 30-357)
Chain of UniProt Q9C0B0 (30-357, looked up): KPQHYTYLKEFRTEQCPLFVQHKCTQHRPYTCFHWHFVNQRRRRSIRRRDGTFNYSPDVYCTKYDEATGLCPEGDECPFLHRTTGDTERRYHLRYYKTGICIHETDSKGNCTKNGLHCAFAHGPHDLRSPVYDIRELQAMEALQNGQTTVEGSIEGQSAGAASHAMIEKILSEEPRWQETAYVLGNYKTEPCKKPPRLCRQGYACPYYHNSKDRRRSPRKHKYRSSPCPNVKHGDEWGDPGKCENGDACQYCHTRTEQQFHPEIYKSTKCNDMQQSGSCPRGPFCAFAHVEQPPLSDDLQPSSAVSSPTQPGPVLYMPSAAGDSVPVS
Method: RNA Bind-n-Seq
Molecule type: RNA
Medium: in vitro
Tested at: 100 nM
Notes: RNA with constant flanks, vertebrate orthologous sites, ends assumed
Reference: input RNA pool
Reading: higher = stronger binding
Measurement: bound/input enrichment
All sequences stand within: GGGAGUUCUACAGUCCGACGAUC … CAACAGAGGAUUGAGCAUCA
UACAAGAAGAGCUCACAAACUCAAAGGAAAACUAGUAAAGAGUUUCUAAGAGUUAAAAGCUAGGAAAGAUUAGGACAACUUUACAAAUGAGCAAUUAAAAACAGAACAAAAAAGGAAAUG: 0.317 ratio
CCGCUAAACCCCAUUUCUUCUGUUUCAUAGUGCAGAAGUAUUCUUUCUCAGCUAUAUUAUUAGUGGACUUGUUUUAAUUUUAGGGAAACUUCCAGUACAGAUACUGUGAGCUUACAAGGA: 0.936 ratio
CUUGUUUCUAUUGGUCUGUAAAUGUGUCCUAAAAAAAUCAGAGUUUAUUUAUAAACAGAAUAGUUUAUUUAAAGAAGUCUUUCCCCAUCCAUUUUGUGGUUUGCAUUAAUUCUGUGUUUC: 0.267 ratio
UACUAGUGUCACACCAGCAUACUCACUGCUCCUUUGUACACAGCUUCCGAUGAUCAGUCUAGUUGUAUUUUUUAAUUUAAACUAUGAAAUACUGCUUUUCCCAAGACUUUGAAAAAGAUA: 0.782 ratio
GUGGCACCCUCUGUGAGAGGGAGUGGGGGGAGUCCAGGAUGACCCUCCGUUGUUCCGAUCCAGUAUUUUUUUUCUUUUUUUAAACUUACUGUAUUUAUUAUGACGAUGGUGACUCCCCAG: 0.346 ratio
GUGUUGGUGCAGAGUGCUCUGUGCCAGUUGCUCAUGAUCCCUUUUUCAUACCAACAGCCCUAGUUACAGGAAUUUAAUAUUUUUAAAAAUUUACAUUGCUGUAUAUUCAAAGAUUUGUUU: 0.33 ratio
UUUGAUUUUAUGUGUUUAAAAAGCUUGAAAAACAUUGCUUUAAAAAAGGAAAAAAAAAAGGCAAAUAGAGCAACCCGUUGUUAAAGUAGAAGAGUUUUUAGCUAGAGAACGUGCUCGCUU: 0.273 ratio
GACCUCCUGAACUUCUAGCUUUCAAGCUGUGGCUGUUUUAGAUACUGGUUUUAUUUUCGUUACAGUUUUUCCCUGUUUCCCACCUUCUCUCCCCCUCUUCCCAAGGUCUGACUCAUGGAU: 1.43 ratio

Study 4
Target: Interferon regulatory factor 7, full length, phosphomimetic (IRF7, Homo sapiens, UniProt Q92985, residues 1-503, S471D/S472D/S475D/S476D/S477D/S483D/S484D/S487D)
Method: protein-binding microarray
Molecule type: double-stranded DNA, one strand shown
Medium: in vitro
Tested at: 2200 nM top
Notes: 60-bp whole probe
With: salmon DNA 0.4 mg/ml
Reference: random background probes
Reading: higher = stronger binding
Measurement: fitted relative affinity
All sequences stand within: GCCTAGCAC … GTCTTGATTCGCTTGACGCTGCTG
Residues (chain): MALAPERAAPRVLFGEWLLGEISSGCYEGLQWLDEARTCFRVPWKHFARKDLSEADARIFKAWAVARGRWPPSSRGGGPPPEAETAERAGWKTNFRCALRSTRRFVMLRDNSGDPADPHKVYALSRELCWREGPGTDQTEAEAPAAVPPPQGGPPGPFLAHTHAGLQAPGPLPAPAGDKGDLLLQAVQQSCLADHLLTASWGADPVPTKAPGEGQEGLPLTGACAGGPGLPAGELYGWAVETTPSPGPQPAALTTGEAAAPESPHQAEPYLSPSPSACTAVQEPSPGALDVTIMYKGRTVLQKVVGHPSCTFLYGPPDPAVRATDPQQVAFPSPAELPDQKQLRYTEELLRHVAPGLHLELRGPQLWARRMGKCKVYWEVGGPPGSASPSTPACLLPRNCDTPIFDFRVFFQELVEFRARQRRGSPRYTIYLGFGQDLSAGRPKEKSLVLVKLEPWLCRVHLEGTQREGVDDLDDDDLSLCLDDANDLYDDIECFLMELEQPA
GACGACCTGAGACTGGAGACGTGCTAG: -0.163 z-score
TCATATTTTTTTCCAGAACTGTGCTAG: 0.907 z-score
GACGATATCGAGACTGGAGACGTGCTA: 0.106 z-score
TTAGGTCTGGACACTGGGTTAGTGCTA: -0.394 z-score
TGAGAACTGAGACTGGATTAGTGCTAG: -0.56 z-score
TACTCTACAGGGTTTCACTTTGTGCTA: 2.65 z-score
TTAGGACTGCTTCTCCTTTTGTGCTAG: 0.888 z-score
GACGTTATCGGGACTGGGGACGTGCTA: -0.37 z-score
GACGATATCGGTTTCGAGACGTGCTAG: 3.24 z-score
CTGTGTGTCAGGTTTACTAGGGTGCTA: -0.042 z-score
ACAGCAAGCAGGGCCAGCCCGTGCTAG: -0.677 z-score
GACGGTATCGGGTTTCGCGACGTGCTA: 0.923 z-score
TTAGGTATCCTTATACTTTAGTGCTAG: 0.453 z-score
TTAAGTATCGGTTTCGGTTAGTGCTAG: 7.74 z-score
TCACTTTTATTTTCAGTACTGTGCTAG: 3.58 z-score
AGTGTTTGCCCTATTTAAAAGTGCTAG: 1.07 z-score
CCCACCTCTCACGGGCTTGTGTGCTAG: 0.103 z-score
CAGTAGATGGCGCCTGAGAGGTGCTAG: -0.131 z-score
TTAGGACTGGGTCTCGTTTAGTGCTAG: -0.0187 z-score

Study 5
Target: CCND3, cyclin fold, Cln2 fusion (human)
Method: yeast growth competition, sequencing
Medium: yeast
Notes: weak parent motif
Reference: not given
Reading: higher = stronger binding
Measurement: normalised enrichment score
Parent: REV3L docking peptide (human); PPVIIKYIIINRF
P2A: -0.063
Y7A: 0.461
I8A: 0.159
I5A: -0.336
I9A: 0.349
R12A: 0.274
V3A: -0.0257

Study 6
Target: TAR DNA-binding protein 43, full length, His tag (TARDBP, Homo sapiens, UniProt Q13148, residues 1-414)
Method: RNA Bind-n-Seq
Molecule type: RNA
Medium: in vitro
Tested at: 20 nM
Notes: 6-mer, flanks averaged, single round
With: 150 mM LiCl
Reference: input library
Reading: higher = stronger binding
Measurement: 6-mer enrichment (R)
CUUGUA: 1.01
AGCUUC: 0.833
CACGGG: 0.938
CUCCUA: 0.935
AUUUUU: 1.48
GAGGGA: 1.2
AGAUCU: 0.824
AGAUAA: 0.837
UACUAA: 0.86

For quick reference, copied from above (study 4):
TACTCTACAGGGTTTCACTTTGTGCTA: 2.65 z-score
AGTGTTTGCCCTATTTAAAAGTGCTAG: 1.07 z-score
TTAGGTATCCTTATACTTTAGTGCTAG: 0.453 z-score
TTAGGACTGCTTCTCCTTTTGTGCTAG: 0.888 z-score
GACGATATCGAGACTGGAGACGTGCTA: 0.106 z-score
TTAAGTATCGGTTTCGGTTAGTGCTAG: 7.74 z-score
